Experimental data gathered from unrelated publications.
Each line is one published result; not all experiments were run side by side. ± marks the error that the study gave.

Compound | tested on | assay | test system | conditions | how to read | quantity | result
CCC(=O)N(C)c1ccc(Cl)c(Cl)c1 | Salmonella typhimurium | Ames test | TA1535 | 0.10 mg/plate, without S9 activation |  | revertants | 15 ± 5 revertants/plate
CN(C)CC1CCCCC1(O)c1cccc(O)c1 (centres unmarked) | Caco-2 TC7 monolayer |  |  | 50 µM, 3 h, apical pH 6.8, basolateral pH 7.4 | baseline: B-to-A over A-to-B | efflux ratio | 2.3
O=C(O)CCC(NP(=O)(O)OCCC[C@@H](NC(=O)CCC(NC(=O)CCCCCNC(=O)c1ccc([18F])cc1)C(=O)O)C(=O)O)C(=O)O (some centres unmarked) | CWR22Rv1 tumour model |  | host not given, blood | intravenous, 1 h, tumour-bearing |  | tracer uptake | 0.17 %ID/g
CN[C@](C)(C[18F])C(=O)O | SK-OV-3 tumour model |  | host not given, blood | 15 min, tumour-bearing |  | tracer uptake | 3.1 %ID/g
C[C@]12CC[C@H](OCC[18F])C[C@H]1CC[C@@H]1[C@@H]2CC[C@]2(C)[C@@H](c3ccc(=O)oc3)CC[C@]12O | SMMC-7721 tumour model |  | nude, tumour | intravenous, 7.4 MBq, 4 h, tumour-bearing |  | tracer uptake | 3.24 %ID/g
C[C@@](O)(C(F)F)[C@H](NC(=O)c1ccc(C#CC#CC2CC2)cc1)C(=O)NO |  |  | dog, plasma | intravenous, 10 mg/kg |  | AUC(0-inf) | 5200 ng·h/mL
COc1ccc(CNc2nc(N3CCC[C@H]3CO)ncc2C(=O)NN)cc1Cl | Salmonella typhimurium |  | TA98 | 62.5 µg/plate, 48 h, added: rat liver S9 |  | revertant count | 30 ± 2
COc1cc(C(=O)NCCOCCOCCOCCNC(=O)c2ccc([18F])nc2)ccc1NC(=O)C1NC(CC(C)(C)C)C(C#N)(c2ccc(Cl)cc2F)C1c1cccc(Cl)c1F (centres unmarked) | HepG2 tumour model |  | host not given, heart | 4 h, tumour-bearing |  | tracer uptake | 0.26 %ID/g

Some of these lines once more:
Compound | tested on | assay | test system | conditions | how to read | quantity | result
COc1cc(C(=O)NCCOCCOCCOCCNC(=O)c2ccc([18F])nc2)ccc1NC(=O)C1NC(CC(C)(C)C)C(C#N)(c2ccc(Cl)cc2F)C1c1cccc(Cl)c1F (centres unmarked) | HepG2 tumour model |  | host not given, heart | 4 h, tumour-bearing |  | tracer uptake | 0.26 %ID/g
